Assay results collected from several papers.
A part holds a random share of what one study measured. Values joined by “and” are separate records of one study, mostly repeats; a detail may differ.
UniProt Q9Y2U5, sequence (whole entry, looked up): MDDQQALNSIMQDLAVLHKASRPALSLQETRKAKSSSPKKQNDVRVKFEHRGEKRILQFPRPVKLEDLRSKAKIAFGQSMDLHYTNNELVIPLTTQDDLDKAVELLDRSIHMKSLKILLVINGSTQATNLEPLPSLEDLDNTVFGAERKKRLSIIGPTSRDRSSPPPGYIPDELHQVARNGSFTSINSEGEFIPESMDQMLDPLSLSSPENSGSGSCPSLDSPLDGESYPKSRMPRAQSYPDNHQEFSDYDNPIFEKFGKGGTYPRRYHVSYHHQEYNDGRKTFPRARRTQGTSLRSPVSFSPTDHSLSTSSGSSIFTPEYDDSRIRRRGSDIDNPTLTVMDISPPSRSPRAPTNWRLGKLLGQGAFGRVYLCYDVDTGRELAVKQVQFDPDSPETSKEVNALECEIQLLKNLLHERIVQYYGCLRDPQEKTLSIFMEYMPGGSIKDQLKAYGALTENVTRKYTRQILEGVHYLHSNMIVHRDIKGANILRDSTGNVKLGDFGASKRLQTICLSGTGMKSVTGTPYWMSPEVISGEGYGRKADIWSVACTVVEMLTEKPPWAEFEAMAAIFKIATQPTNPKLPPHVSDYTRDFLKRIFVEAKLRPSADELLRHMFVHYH
UniProt Q9NWZ3, sequence (whole entry, looked up): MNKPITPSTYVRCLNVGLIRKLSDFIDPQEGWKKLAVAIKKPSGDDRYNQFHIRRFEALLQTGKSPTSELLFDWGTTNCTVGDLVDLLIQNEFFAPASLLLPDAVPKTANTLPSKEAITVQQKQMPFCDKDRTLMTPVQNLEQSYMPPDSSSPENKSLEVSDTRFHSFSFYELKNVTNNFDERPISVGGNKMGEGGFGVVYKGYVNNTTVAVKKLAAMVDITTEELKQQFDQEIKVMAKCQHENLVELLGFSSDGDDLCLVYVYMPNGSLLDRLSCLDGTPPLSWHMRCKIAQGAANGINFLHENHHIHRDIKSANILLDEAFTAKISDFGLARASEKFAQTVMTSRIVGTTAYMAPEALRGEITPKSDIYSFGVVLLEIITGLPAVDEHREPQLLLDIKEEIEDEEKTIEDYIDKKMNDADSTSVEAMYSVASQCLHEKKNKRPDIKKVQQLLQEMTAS
UniProt Q00535, sequence (whole entry, looked up): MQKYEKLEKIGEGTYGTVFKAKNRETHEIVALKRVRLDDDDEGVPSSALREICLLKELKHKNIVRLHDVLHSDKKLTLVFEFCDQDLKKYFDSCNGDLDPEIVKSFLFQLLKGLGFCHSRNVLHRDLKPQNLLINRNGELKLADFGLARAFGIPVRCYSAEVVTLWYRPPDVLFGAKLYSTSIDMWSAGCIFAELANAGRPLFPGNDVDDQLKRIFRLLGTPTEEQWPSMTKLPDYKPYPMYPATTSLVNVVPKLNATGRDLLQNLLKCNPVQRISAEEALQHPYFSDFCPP
UniProt Q8IVT5, sequence (whole entry, looked up): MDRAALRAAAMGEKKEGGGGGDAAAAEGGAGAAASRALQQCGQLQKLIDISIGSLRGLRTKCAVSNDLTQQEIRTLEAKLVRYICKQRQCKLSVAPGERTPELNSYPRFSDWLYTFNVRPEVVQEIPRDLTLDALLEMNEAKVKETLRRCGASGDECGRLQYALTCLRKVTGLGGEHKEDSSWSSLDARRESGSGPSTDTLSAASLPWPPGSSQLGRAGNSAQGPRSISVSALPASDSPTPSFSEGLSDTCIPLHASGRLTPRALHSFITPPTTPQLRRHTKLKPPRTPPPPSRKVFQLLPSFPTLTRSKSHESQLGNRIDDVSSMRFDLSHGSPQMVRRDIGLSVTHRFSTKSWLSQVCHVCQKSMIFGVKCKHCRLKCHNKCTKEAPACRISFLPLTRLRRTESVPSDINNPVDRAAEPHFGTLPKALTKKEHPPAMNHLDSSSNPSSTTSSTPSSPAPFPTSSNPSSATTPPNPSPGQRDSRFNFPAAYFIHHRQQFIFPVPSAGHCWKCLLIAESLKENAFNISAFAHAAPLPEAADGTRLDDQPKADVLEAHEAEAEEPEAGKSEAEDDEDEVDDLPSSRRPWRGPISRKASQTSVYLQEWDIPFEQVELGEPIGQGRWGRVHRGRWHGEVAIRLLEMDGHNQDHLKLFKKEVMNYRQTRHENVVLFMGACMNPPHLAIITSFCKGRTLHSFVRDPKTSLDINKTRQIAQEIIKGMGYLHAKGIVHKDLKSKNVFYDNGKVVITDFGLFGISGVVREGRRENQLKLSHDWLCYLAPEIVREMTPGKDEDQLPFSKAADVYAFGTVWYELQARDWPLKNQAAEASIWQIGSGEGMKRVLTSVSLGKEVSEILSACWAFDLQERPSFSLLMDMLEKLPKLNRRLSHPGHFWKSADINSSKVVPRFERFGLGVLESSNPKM

Set 1
SMILES: C=CCc1ccc(O)c(-c2ccc(O)c(CC=C)c2)c1
Read-out: chloride current
ANO1 del476-501: Anoctamin-1 (ANO1, Homo sapiens, UniProt Q5XXA6, del476-501)
UniProt Q5XXA6, sequence (whole entry, unmodified, looked up): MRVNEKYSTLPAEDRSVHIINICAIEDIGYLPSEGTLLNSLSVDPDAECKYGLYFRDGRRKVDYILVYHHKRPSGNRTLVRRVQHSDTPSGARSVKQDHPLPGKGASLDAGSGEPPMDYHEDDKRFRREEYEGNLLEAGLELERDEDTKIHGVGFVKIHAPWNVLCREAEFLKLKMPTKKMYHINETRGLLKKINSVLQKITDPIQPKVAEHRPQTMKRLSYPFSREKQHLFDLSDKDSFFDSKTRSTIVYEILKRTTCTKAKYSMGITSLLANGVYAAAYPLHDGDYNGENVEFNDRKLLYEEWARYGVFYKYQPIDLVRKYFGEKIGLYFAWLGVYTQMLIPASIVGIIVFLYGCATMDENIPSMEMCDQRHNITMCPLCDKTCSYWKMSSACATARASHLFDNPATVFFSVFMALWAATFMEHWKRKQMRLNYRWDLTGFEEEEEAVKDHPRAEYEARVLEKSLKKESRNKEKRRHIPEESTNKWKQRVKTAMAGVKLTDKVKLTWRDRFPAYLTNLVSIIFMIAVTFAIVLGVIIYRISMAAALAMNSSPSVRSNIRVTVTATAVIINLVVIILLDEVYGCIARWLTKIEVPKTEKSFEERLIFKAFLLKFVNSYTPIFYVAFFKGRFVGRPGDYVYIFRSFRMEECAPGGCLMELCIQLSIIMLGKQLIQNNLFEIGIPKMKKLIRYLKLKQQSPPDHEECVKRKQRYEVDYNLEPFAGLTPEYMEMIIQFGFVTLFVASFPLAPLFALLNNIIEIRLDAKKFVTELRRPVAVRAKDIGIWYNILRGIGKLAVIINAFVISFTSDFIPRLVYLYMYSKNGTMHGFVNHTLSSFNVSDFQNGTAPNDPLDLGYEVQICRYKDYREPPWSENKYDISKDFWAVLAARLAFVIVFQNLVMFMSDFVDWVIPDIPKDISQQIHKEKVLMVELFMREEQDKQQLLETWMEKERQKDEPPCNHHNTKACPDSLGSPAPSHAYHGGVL
ANO1 del476-501/F628A: Anoctamin-1 (ANO1, Homo sapiens, UniProt Q5XXA6, del476-501/F628A)
Anoctamin-1 (ANO1, Homo sapiens, UniProt Q5XXA6, del476-501/R541A); inside-out patch clamp; 10 µM, membrane voltage -20 mV — normalized current: -0.12.
It gave -0.012 for normalized current (ANO1 del476-501; whole-cell voltage clamp; 30 µM, wild type, concentration-response at -20 mV, with: 4 µM Ca2+).
For ANO1 del476-501; whole-cell voltage clamp; 1 µM, wild type, I-V at 0 mV, with: 4 µM Ca2+: normalized current read -0.0021.
For ANO1 del476-501; whole-cell voltage clamp; 30 µM, wild type, I-V at 80 mV, with: 4 µM Ca2+: normalized current read 0.052.
For ANO1 del476-501/F628A; whole-cell voltage clamp; 10 µM, I-V at -100 mV, with: 4 µM Ca2+: normalized current read -0.684.
ANO1 del476-501/F628A; whole-cell voltage clamp; 1 µM, concentration-response at 60 mV, with: 4 µM Ca2+ — normalized current: 0.578.

Set 2
SMILES: CC(=O)N[C@@H](Cc1c[nH]c2ccccc12)C(=O)N[C@@H](CCC(=O)C=[N+]=[N-])C(=O)OC(C)C
For mouse, MC-38 rechallenge tumour; 0.26 mg/kg, day 0 after injection: tumour volume read 0 mm3.
It gave 475 mm3 and 432 mm3 and 222 mm3 and 381 mm3 and 810 mm3 and 776 mm3 for tumour volume (mouse, EL4 tumour; subcutaneous, 0.3 mg/kg, day 10).
It gave 0 mm3 for tumour volume (mice, MC-38 tumour rechallenge; 1 mg/kg, day 43 after injection).
For C57BL/6 CES1-/- mouse, EL4 tumour; intravenous, 1 mg/kg DON equivalent, treatment day 10, 5 days per week: tumour volume read 176 mm3 and 116 mm3 and 184 mm3 and 424 mm3 and 609 mm3 and 161 mm3 and 502 mm3 and 399 mm3.
It gave 0 mm3 for tumour volume (mice, MC-38 tumour rechallenge; 0.26 mg/kg, day 14 after injection).

Set 3
Target: Beta-1 adrenergic receptor (ADRB1, Homo sapiens, UniProt P08588)
UniProt P08588, sequence (whole entry, looked up): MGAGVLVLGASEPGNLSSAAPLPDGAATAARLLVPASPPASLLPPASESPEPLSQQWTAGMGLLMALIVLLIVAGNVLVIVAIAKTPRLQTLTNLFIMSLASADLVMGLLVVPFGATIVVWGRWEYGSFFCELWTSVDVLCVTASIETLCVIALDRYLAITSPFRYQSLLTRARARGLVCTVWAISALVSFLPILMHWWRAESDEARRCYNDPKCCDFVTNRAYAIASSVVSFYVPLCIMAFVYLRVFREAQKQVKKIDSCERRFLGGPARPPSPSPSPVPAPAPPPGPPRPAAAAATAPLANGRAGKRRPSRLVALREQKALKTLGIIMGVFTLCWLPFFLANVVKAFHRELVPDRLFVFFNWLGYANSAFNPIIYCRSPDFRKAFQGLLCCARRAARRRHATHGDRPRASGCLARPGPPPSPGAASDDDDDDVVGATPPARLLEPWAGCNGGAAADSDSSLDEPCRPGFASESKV
Mode: antagonist
For `O=C(CCc1ccccc1)Nc1ccc([C@@H](O)[C@H]2COCC(=O)N2Cc2ccncc2)cc1`, the IC50 was ≥ 100 µM.
The IC50 of `Cc1cc(=O)oc2cc(O)c(O)cc12` is reported as ≥ 100 µM.
The IC50 of `CCC(c1ccccc1)N1CCN(CC(C)O)CC1` (stereo not drawn) is reported as ≥ 100 µM.
For `CN(Cc1ccccc1)Cc1cc(CC2(NCc3ccc(N(C)C)cc3)COC2)no1`, the IC50 was ≥ 100 µM.
`CCOc1ccc(C(=O)N2CCN(c3ccccc3OC)CC2)cc1` gave an IC50 of ≥ 100 µM.
The IC50 of `N#C/C(=C\c1ccc(O)c(O)c1)C(=O)NCCc1ccccc1` is reported as ≥ 100 µM.
With `Cc1cc(F)ccc1-c1n[nH]c2ncc(-c3ccccc3)nc12` the IC50 was 35.5 µM.
For `C[C@@H]([C@@H](O)c1ccc(O)cc1)N1CCC(O)(c2ccccc2)CC1`, the IC50 was ≥ 100 µM.
For `N#Cc1cc2c(nc1N1CC(n3c(C4CC4)nc4ccccc43)C1)CCOC2`, the IC50 was ≥ 100 µM.

Set 4
Target: Histamine H1 receptor (HRH1, Homo sapiens, UniProt P35367)
UniProt P35367, sequence (whole entry, looked up): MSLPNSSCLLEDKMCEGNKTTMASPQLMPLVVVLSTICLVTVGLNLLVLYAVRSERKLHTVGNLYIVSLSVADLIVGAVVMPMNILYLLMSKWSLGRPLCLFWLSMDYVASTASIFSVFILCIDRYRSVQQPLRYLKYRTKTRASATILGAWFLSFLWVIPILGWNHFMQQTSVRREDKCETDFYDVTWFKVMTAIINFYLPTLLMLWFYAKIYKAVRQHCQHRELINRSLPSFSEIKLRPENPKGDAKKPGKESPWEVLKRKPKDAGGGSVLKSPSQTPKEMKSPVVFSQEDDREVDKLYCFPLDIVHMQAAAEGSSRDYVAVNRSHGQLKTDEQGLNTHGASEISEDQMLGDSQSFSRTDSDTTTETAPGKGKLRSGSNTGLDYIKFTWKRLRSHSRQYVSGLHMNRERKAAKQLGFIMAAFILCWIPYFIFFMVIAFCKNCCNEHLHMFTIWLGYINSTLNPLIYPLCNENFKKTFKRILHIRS
Read-out: binding
Method: radioligand binding
Tested at: 10 µM
`O=C1CCc2cc(Nc3cc(OC4CCOCC4)c([N+](=O)[O-])cc3Cl)ccc2N1` has an inhibition of 17%.
`Cc1c(NC(=O)c2cc(C(N)=O)nc3cc(F)ccc23)c(C(F)(F)F)nn1Cc1ccc(C(C)(C)C)cc1` gave an inhibition of 46.1%.
`Cc1cc(-n2nc(Cc3cc(F)cc(C(F)(F)F)c3)nc2C)ccc1C(N)=O` has an inhibition of 8.06%.
`O=C1c2ccc(Nc3ccc(F)cc3F)cc2CCc2ccc(OC[C@H](O)CO)cc21` gave an inhibition of 12.7%.
For `COCCc1ccc(-c2c(C)nc3c(N4CCOCC4)ccnn23)cn1`, the inhibition was 24.6%.
The inhibition of `Cc1cc(C)c(-n2ccn3nc(-c4cccnc4)cc23)cc1NC(=O)c1cc(C#N)cc(S(F)(F)(F)(F)F)c1` is reported as 25.3%.
`C[C@@H]1CN(c2cc(-c3nn(C)c4ccc(OC5(C)CC5)cc34)ncn2)C[C@H](C)O1` has an inhibition of 11.9%.
For `CS(=O)(=O)NCC[C@H](NC(=O)c1cncc2c1cnn2-c1ccc(F)cc1)c1ccnc(S(C)(=O)=O)c1`, the inhibition was 12.5%.
With `CC(=O)c1c(NS(C)(=O)=O)c2cc(-c3ccc(Cl)cc3)c(-c3ccc(Cl)cc3Cl)nc2n(C)c1=O` the inhibition was 18.8%.
`O=C(NC[C@@H]1[C@H]2CN(C(=O)OCc3cc(C(F)(F)F)cc(C(F)(F)F)c3)C[C@@H]12)c1ccc2[nH]nnc2c1` gave an inhibition of 12.8%.
`CN1C(=O)[C@@H](N2CCc3cn(Cc4ccccc4)nc3C2=O)COc2ccccc21` has an inhibition of 20.5%.
`CC(C)CC(=O)N1CCc2nc(-c3ccc(Br)cc3)nc(N(C)Cc3ccccc3)c2C1` gave an inhibition of 12.6%.
The inhibition of `O=C(Nc1cccnn1)N1CC(CC=Cc2cncc(Oc3ccc(C(F)(F)F)cn3)n2)C1` is reported as 17.3%.
The inhibition of `C[C@H](NC(=O)c1cnc2n1[C@](C)(Cc1ccc(C#N)cc1)C(=O)N2c1cc(Cl)c(F)c(Cl)c1)C(=O)NC1(c2ccccn2)CC1` is reported as 3.2%.
With `COc1nc2ccc([C@@](O)(c3ccccc3)C3CCN(C(C)=O)CC3)cc2c(Cl)c1Cc1ccc(-n2cccn2)cc1` the inhibition was 38%.
With `O=C(Nc1cccnn1)N1CCC(=Cc2cccc(Oc3ccc(C(F)(F)F)cn3)c2)CC1` the inhibition was 27.2%.
The inhibition of `CC1=C(C#N)C(c2ccc3c(c2)c(NC(=O)c2ccccc2C)nn3C)C(C#N)=C(C)N1` is reported as 0.94%.
With `CNC(=O)Nc1ccc2c(c1)[C@]1(CC2)OC(=O)N(CC(=O)N(Cc2ccc(F)cc2)[C@@H](C)C(F)(F)F)C1=O` the inhibition was -7.68%.
The inhibition of `Cc1nccc(COC(=O)N2C[C@@H]3[C@@H](CNC(=O)c4ccc5[nH]nnc5c4)[C@@H]3C2)n1` is reported as 18.1%.
The inhibition of `O[C@]1(C(F)(F)F)CCCC[C@H]1Nc1ccc(F)cc1` is reported as 25.7%.
`Cc1c[nH]c2nccc(Oc3c(F)cc(Nc4cc(Cl)nc(N)n4)cc3F)c12` gave an inhibition of -0.06%.
`CC(C)(O)c1cncc(-c2nc3ccc(F)cc3n2C2CC2)c1` gave an inhibition of 9.54%.
The inhibition of `CCOC(=O)c1cc2cc(-c3cc(C(=O)NCc4ccc(C(=O)O)cc4)nn3C)ccc2[nH]1` is reported as 9.64%.
`CN(C)C(=O)Cn1cc(-c2nc([C@@](C)(c3ccc(-c4cnc(N)nc4)cc3)C3CC3)no2)cn1` has an inhibition of 7.66%.
With `O=C(O)c1cc(-c2ccc(C3CCNCC3)cc2)c2ccc(-c3ccc(C(F)(F)F)cc3)cc2c1` the inhibition was 21.6%.

Set 5
SMILES: Cc1sc(C(=O)NC2COC2)cc1-n1cc(NC(=O)Nc2c(F)cccc2Cl)cn1
Read-out: enzyme activity
Tested at: 10 µM
It gave 88.1% for remaining activity (Mitogen-activated protein kinase kinase kinase 2 (MAP3K2, Homo sapiens, UniProt Q9Y2U5); relative to: untreated control).
Interleukin-1 receptor-associated kinase 4 (IRAK4, Homo sapiens, UniProt Q9NWZ3); relative to: untreated control — remaining activity: 102%.
The remaining activity was 97% (Cyclin-dependent kinase 5, with p25 (CDK5, Homo sapiens, UniProt Q00535); relative to: untreated control).
The remaining activity was 87.3% (cGMP-dependent protein kinase 1, isoform beta (PRKG1, Homo sapiens, UniProt Q13976); relative to: untreated control).
For Proto-oncogene tyrosine-protein kinase Src (SRC, Homo sapiens, UniProt P12931); relative to: untreated control: remaining activity read 96%.
The remaining activity was 103% (Kinase suppressor of Ras 1 (KSR1, Homo sapiens, UniProt Q8IVT5); inhibitor).
The remaining activity was 104% (cAMP-dependent protein kinase catalytic subunit beta (PRKACB, Homo sapiens, UniProt P22694); relative to: untreated control).
Serine/threonine-protein kinase Nek5 (NEK5, Homo sapiens, UniProt Q6P3R8); inhibitor — remaining activity: 105%.
Calcium/calmodulin-dependent protein kinase type 1G (CAMK1G, Homo sapiens, UniProt Q96NX5); relative to: untreated control — remaining activity: 92.5%.

Excerpt of the above (set 3):
For `CN(Cc1ccccc1)Cc1cc(CC2(NCc3ccc(N(C)C)cc3)COC2)no1`, the IC50 was ≥ 100 µM.
`CCOc1ccc(C(=O)N2CCN(c3ccccc3OC)CC2)cc1` gave an IC50 of ≥ 100 µM.
The IC50 of `N#C/C(=C\c1ccc(O)c(O)c1)C(=O)NCCc1ccccc1` is reported as ≥ 100 µM.
With `Cc1cc(F)ccc1-c1n[nH]c2ncc(-c3ccccc3)nc12` the IC50 was 35.5 µM.
For `C[C@@H]([C@@H](O)c1ccc(O)cc1)N1CCC(O)(c2ccccc2)CC1`, the IC50 was ≥ 100 µM.
